{"data": "Published values pooled from the literature", "organism": "Mycobacterium tuberculosis", "note": "Protocols differ between the studies behind these lines. ± marks the error that the study gave."}
{"Compound": "Cc1ccc(F)c(C(=O)C=C(O)C(=O)OCc2ccccc2)c1Cl", "test": "MABA", "system": "H37Rv", "conditions": "dextrose carbon source", "quantity": "MIC99", "value": "2 µM"}
{"Compound": "CCCC/C=C/C(=O)N[C@@H](Cc1cc(F)cc(F)c1)C(=O)N[C@@H](COC(=O)[C@@H]1CCCN1C(C)=O)C(=O)OC", "system": "H37Rv", "conditions": "with: 50 µg/mL verapamil", "quantity": "MIC", "value": "0.78 µg/mL"}
{"Compound": "CCCCCCCCCC1N=C(N)N=C(N)N1c1ccc(Cl)cc1.Cl (racemic)", "test": "microplate alamar blue", "system": "H37Rv", "conditions": "GAST medium, glycerol carbon source", "quantity": "MIC90", "value": "1.5 µM"}
{"Compound": "Cc1ccc2nc(C)c(C(=O)NCc3ccc(C(F)(F)F)cc3)n2c1", "test": "MABA", "system": "H37Rv, GAS medium", "quantity": "MIC", "value": "0.0113 ± 0.0025 µM"}
{"Compound": "O=C(OCc1ccccc1)C(O)=CC(=O)c1ccccc1Br", "test": "MABA", "system": "H37Rv", "conditions": "acetate carbon source", "quantity": "MIC99", "value": "< 1 µM"}
{"Compound": "[2H]c1c(C([2H])([2H])[2H])c([2H])n2c(C(=O)NCc3ccc(C(C)(C)C)cc3)c(C)nc2c1[2H]", "test": "MABA", "system": "H37Rv, GAS medium", "quantity": "MIC", "value": "0.0005 µM"}
{"Compound": "COC(=O)C(O)=CC(=O)c1ccccc1Br", "test": "MABA", "system": "H37Rv", "conditions": "dextrose carbon source", "quantity": "MIC99", "value": "16 µM"}
{"Compound": "CCCCCCCCCCCC1N=C(N)N=C(N)N1c1ccc(Cl)cc1.Cl (racemic)", "test": "microplate alamar blue", "system": "H37Rv", "conditions": "7H12 medium", "quantity": "MIC90", "value": "0.7 µM"}
{"Compound": "CCCCCCc1ccc(Oc2ccccc2Br)c(O)c1", "test": "microplate Alamar Blue", "conditions": "6 days + 24 h, 37 °C", "quantity": "MIC", "value": "3.13 µg/mL"}
{"Compound": "CCCCCCC1N=C(N)N=C(N)N1c1ccc(Cl)cc1.Cl (racemic)", "test": "microplate alamar blue", "system": "H37Rv", "conditions": "GAST medium, glycerol carbon source", "quantity": "MIC90", "value": "5.7 µM"}
{"Compound": "[2H]c1c(C([2H])([2H])[2H])c([2H])n2c(C(=O)NCc3cccc(N(C)C)c3)c(C)nc2c1[2H]", "test": "MABA", "system": "H37Rv, 7H12 medium", "quantity": "MIC", "value": "0.111 ± 0.036 µM"}
{"note": "For quick reference, copied from above:"}
{"Compound": "[2H]c1c(C([2H])([2H])[2H])c([2H])n2c(C(=O)NCc3cccc(N(C)C)c3)c(C)nc2c1[2H]", "test": "MABA", "system": "H37Rv, 7H12 medium", "quantity": "MIC", "value": "0.111 ± 0.036 µM"}
